Published values from different studies.
Each line is one published result; not all experiments were run side by side. ± marks the error that the study gave.
Chain of UniProt P07949 (whole entry, unmodified, looked up): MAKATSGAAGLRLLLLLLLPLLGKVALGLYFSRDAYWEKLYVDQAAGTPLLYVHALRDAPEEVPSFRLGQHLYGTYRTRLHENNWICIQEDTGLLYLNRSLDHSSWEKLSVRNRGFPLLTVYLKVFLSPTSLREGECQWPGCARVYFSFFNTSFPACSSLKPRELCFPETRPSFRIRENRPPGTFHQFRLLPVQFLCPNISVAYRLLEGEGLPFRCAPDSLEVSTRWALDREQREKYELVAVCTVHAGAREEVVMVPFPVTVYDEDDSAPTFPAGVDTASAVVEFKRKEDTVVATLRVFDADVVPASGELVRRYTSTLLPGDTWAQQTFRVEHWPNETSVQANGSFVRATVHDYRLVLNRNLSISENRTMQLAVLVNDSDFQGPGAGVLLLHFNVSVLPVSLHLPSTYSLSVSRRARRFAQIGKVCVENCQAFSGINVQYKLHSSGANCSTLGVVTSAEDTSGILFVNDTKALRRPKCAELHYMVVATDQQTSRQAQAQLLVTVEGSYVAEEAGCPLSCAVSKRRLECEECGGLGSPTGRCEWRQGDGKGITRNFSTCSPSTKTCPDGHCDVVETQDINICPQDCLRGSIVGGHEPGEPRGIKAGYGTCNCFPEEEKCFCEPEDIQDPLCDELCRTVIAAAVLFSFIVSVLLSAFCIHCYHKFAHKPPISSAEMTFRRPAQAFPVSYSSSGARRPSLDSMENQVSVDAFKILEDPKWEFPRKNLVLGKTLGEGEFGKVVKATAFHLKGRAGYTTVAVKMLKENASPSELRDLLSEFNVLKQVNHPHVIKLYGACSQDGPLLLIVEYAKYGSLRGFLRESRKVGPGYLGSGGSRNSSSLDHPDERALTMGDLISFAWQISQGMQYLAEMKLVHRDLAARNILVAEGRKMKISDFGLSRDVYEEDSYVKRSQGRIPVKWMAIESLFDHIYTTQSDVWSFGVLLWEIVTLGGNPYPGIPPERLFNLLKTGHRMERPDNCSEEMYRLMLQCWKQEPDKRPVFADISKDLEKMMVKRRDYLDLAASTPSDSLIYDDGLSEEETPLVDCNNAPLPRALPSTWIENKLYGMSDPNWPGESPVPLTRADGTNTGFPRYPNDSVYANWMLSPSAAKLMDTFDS
Chain of UniProt P15056 (whole entry, looked up): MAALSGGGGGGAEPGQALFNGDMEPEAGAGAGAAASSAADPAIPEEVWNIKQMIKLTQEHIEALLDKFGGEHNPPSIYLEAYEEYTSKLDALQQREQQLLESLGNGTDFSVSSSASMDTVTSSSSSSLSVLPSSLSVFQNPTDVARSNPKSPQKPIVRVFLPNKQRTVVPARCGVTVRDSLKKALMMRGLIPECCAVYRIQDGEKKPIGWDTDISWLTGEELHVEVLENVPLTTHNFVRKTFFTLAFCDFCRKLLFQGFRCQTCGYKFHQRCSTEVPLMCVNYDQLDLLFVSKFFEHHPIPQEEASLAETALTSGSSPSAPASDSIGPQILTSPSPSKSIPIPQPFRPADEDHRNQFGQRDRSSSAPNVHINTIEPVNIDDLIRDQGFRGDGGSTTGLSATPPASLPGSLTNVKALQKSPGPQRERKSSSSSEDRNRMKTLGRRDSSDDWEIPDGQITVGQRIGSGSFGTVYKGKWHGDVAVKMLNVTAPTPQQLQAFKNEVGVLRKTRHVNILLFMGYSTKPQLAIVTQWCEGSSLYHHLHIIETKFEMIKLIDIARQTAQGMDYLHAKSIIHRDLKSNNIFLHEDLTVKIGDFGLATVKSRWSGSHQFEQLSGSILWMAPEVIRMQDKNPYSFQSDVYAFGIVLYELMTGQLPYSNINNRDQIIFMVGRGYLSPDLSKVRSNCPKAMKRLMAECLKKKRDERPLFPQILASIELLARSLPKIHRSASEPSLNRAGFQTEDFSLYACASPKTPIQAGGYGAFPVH
Chain of UniProt P00811 (whole entry, looked up): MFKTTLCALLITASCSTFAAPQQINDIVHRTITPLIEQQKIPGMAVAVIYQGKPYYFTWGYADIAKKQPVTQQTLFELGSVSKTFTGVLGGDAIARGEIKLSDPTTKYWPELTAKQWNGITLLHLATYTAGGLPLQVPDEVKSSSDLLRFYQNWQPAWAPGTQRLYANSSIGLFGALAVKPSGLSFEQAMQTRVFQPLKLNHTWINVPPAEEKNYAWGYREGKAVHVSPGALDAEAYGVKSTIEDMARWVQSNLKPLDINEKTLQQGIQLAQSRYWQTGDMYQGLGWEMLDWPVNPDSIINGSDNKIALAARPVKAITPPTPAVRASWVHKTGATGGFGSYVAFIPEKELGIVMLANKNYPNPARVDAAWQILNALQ
Chain of UniProt O42275 (whole entry, looked up): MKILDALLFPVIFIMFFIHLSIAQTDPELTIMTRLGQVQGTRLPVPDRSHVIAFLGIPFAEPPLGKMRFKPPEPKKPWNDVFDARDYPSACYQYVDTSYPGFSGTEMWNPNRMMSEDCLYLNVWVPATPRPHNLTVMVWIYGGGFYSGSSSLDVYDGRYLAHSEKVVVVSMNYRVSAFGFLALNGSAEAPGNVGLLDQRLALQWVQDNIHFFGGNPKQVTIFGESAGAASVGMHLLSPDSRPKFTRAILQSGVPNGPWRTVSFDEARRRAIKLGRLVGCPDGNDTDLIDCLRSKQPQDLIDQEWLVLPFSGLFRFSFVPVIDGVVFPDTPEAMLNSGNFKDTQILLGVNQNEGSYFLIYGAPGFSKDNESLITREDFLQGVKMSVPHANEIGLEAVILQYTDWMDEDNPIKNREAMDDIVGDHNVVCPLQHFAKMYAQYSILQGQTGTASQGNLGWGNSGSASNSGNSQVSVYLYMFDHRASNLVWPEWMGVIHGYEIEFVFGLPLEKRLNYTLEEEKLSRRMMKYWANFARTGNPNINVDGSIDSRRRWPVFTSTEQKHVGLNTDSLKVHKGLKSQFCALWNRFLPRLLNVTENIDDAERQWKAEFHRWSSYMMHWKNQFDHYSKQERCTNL
Chain of UniProt P51956 (whole entry, looked up): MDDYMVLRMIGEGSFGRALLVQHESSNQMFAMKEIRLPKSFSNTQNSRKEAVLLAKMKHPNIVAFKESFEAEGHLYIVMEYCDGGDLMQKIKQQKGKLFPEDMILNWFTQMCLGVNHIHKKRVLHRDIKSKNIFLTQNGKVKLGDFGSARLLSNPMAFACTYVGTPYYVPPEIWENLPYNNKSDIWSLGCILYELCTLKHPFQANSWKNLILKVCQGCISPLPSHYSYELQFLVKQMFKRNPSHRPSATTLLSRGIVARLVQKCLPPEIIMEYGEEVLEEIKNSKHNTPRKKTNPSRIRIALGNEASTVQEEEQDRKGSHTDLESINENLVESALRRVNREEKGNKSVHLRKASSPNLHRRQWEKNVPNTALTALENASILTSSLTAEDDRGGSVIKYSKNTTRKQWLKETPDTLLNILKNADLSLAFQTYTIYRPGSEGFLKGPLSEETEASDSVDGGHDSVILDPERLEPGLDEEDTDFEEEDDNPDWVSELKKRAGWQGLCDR
Chain of UniProt O13828 (whole entry, looked up): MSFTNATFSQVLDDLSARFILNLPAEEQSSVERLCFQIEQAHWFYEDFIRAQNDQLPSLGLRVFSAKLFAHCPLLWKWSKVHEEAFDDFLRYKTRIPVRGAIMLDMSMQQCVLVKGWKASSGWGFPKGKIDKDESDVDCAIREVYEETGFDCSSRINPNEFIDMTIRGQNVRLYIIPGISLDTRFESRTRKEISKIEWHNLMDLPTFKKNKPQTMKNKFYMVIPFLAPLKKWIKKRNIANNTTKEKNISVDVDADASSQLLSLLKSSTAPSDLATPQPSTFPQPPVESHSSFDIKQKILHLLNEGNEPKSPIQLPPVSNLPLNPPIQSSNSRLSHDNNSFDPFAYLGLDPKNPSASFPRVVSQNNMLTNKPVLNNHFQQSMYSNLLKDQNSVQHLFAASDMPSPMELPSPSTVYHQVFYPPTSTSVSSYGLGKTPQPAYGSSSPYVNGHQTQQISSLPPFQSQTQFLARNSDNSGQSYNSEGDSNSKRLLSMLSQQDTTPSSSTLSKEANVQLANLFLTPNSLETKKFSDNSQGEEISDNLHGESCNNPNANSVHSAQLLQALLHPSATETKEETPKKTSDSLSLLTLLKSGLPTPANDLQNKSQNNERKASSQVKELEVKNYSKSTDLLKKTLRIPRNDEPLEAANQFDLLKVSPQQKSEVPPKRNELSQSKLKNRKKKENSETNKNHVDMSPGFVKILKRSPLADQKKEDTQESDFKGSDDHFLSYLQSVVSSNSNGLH
Chain of UniProt Q8R146 (whole entry, looked up): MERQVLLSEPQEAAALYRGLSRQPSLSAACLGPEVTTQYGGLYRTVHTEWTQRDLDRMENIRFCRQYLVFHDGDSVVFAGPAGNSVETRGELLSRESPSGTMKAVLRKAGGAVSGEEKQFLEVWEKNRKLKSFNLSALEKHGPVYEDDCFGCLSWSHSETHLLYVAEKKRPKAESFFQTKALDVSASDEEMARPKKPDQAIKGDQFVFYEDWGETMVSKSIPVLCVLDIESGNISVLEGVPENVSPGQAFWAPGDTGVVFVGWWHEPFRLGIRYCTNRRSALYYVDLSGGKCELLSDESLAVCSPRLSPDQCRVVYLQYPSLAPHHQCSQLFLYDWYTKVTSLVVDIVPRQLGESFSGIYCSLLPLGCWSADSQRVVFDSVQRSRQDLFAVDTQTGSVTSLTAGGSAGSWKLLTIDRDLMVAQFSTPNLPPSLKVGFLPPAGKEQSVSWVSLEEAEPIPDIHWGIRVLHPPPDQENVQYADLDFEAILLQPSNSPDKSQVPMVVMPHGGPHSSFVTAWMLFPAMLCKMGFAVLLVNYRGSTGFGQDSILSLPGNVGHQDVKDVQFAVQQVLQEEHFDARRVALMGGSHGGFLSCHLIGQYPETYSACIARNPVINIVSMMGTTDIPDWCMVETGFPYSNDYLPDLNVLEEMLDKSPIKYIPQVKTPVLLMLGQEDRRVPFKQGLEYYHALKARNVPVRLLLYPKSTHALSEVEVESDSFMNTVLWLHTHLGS

For CC[C@H](C)[C@H](NC(=O)[C@H](CO)NC(=O)[C@H](Cc1ccc(O)cc1)NC(=O)[C@H](Cc1ccc(O)cc1)NC(=O)[C@H](CC(N)=O)NC(=O)CNC(=O)[C@H](CO)NC(=O)[C@H](Cc1ccc(O)cc1)NC(=O)[C@H](CO)NC(=O)[C@H](CO)NC(=O)[C@H](CC(N)=O)NC(=O)COCCOCCNC(=O)CN1CCN(CC(=O)O)CCN(CC(=O)O)CCN(CC(=O)O)CC1)C(=O)N[C@@H](CC(C)C)C(N)=O [copper-64 labelled], “maximum metastasis uptake” read 25 %IA/cc (dynamic PET; tamoxifen-induced PDAC mouse model, metastases; 1.1 min, CLDN4-expressing tumours).
CS(C)(=O)=Nc1ccc(-c2ccc(-c3nc4cc(O[C@@H]5CO[C@H]6[C@@H]5OC[C@H]6O)[nH]c4cc3F)cc2)cc1 has an inhibition of -16% (STK10 (Homo sapiens, UniProt O94804); enzyme activity, inhibitor; 10 µM).
CN(C)[C@H]1C[C@@]23CC[C@@]4(O2)C(=CC[C@]2(C)[C@@H](c5ccc6ccncc6c5)CC[C@H]24)C=C3[C@@H](O)[C@@H]1O has an inhibition of 2.6% (BRAF (Homo sapiens, UniProt P15056); ATP probe labelling, inhibitor, KiNativ profiling; 0.1 µM).
COc1ccccc1-c1n[nH]c2nc(N[C@H]3CC[C@H](NS(=O)(=O)CC(C)C)CC3)ncc12 gave a relative abundance of 0.66 (bead binding, competition bead pull-down, refers to: LINJ.26.0320; Leishmania donovani extract; 10 µM; reference: vehicle).
With CCN(CC)CCOc1ccc(-c2nnn(Cc3ccc(OC)cc3)c2N)cc1 the inhibition was -8.48% (GABA-A receptor; radioligand binding; HEK293; 10 µM, with: 10000 nM radioligand).
O=C1NC(=O)c2c1c1cc(F)c[n+]3c1c1c2c2cc(O)ccc2[n]1[Ru-4]312([N]=C=S)[S+]3CC[S+]1CC[S+]2CC3 (stereo not shown) has a remaining activity of 11% (RET (Homo sapiens, UniProt P07949, V804L); enzyme activity; 100 nM, human enzyme, with: 10 µM ATP; reference: untreated).
C=CC(=O)Nc1cc(-c2nn(C3CCC(N4CCN(C(C)=O)CC4)CC3)c3ncnc(N)c23)ccc1Oc1ccccc1 (stereo not shown) gave an inhibition of -4.3% (NEK3 (Homo sapiens, UniProt P51956); inhibitor, KiNativ profiling; biochemical; 2 µM).
The GI50 of CC(C)(C)C(=O)OCOP(=O)(OCOC(=O)C(C)(C)C)C1CCCN(O)C1=O (stereo not shown) is reported as 0.446 µM (HCC 2998).
With O=C(N1CCCCC1)n1ccnn1 the inhibition was less than 50% (Acylamino-acid-releasing enzyme (Apeh, Mus musculus, UniProt Q8R146); serine hydrolase activity, inhibitor, competitive gel-based ABPP; mouse T-cell proteome; 1 µM, 30 min, 37 °C).
For O=C1NC2(CC2)COc2ncc(F)cc2[C@H]2COCCN2c2ccn3ncc1c3n2, “organ-to-brain weight ratio” read 53.1 ± 14.4% (Sprague-Dawley rat, female, spleen; oral, 2.5 mg/kg/day, 4 weeks, end of treatment).
For OB(O)c1cnn(-c2cccc(Cl)c2)c1, the inhibition was 73% (Beta-lactamase (ampC, Escherichia coli K-12, UniProt P00811); enzyme activity, CENTA hydrolysis; 1 µM).
With N[C@H](C(=O)N1CCCC1)C1CCN(c2nccc3c(-c4ncc(Cl)cc4Cl)cccc23)CC1 the inhibition was -14% (GABA-A receptor alpha1; binding, radioligand binding; 10 µM).
CC(C)[C@H]1NC(=O)C[C@H]2/C=C/CCSSC[C@@H](NC1=O)C(=O)N[C@H](Cc1cccc3ccccc13)C(=O)NCC(=O)O2 gave an inhibition of -0.268% (MARK4 (Homo sapiens, UniProt Q96L34); enzyme activity, inhibitor; 10 µM).
COc1ccc(F)cc1S(=O)(=O)Nc1cnc2c(c1)C(=O)NCCO2 has an inhibition of -5% (MC1R (Homo sapiens, UniProt Q01726); ligand displacement, radioligand; 10 µM).
For NCC1CC1, the inhibition was 34.5% (ache (Electrophorus electricus, UniProt O42275); enzyme activity, inhibitor, Ellman; 20 µM).
With BP(=O)(OC[C@H]1O[C@@H](n2c[n+](C)c3c(O)nc(N)nc32)[C@H](O)[C@@H]1O)OP(=O)([O-])OP(=O)([O-])OP(B)(=O)OC[C@H]1O[C@@H](n2c[n+](C)c3c(O)nc(N)nc32)[C@H](O)[C@@H]1O (single isomer, unassigned) the inhibition was 40.4% (mRNA decapping complex subunit 2, with Dcp1 (dcp2, Schizosaccharomyces pombe, UniProt O13828); 200 µM, 0.5 h).
